Experimental data collected from several papers.
Numbered parts are unrelated; each lists some results of a single study. Positions count from the first letter of the parent shown.

Block 1
Target: CCNB1, cyclin fold, Cln2 fusion (human)
Method: yeast growth competition, sequencing
Medium: yeast
Notes: strong parent motif
Reference: not given
Reading: higher = stronger binding
Starting sequence: PKMYT1 docking peptide (human); SFEPRNLLSLFED; partner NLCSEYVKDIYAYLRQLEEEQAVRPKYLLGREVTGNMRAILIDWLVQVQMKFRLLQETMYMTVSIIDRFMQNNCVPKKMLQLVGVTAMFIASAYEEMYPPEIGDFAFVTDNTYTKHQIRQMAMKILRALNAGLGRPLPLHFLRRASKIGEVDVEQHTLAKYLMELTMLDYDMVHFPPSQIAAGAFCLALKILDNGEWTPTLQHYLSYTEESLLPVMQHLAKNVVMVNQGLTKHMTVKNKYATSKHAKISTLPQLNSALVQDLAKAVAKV
Change	normalised enrichment score
SFEPRNGLSLFED [L7G]	-0.218
SFEPRNLPSLFED [L8P]	-0.166
SFEPRNLLSLYED [F11Y]	1.12
SFEPRNLLSLVED [F11V]	0.46
SFEPRNLCSLFED [L8C]	0.278
SFEPRNLLSLFEQ [D13Q]	1.1
SFIPRNLLSLFED [E3I]	1.54
STEPRNLLSLFED [F2T]	0.835
SFEPYNLLSLFED [R5Y]	0.245
SFEPRNDLSLFED [L7D]	-0.46
SFEPRYLLSLFED [N6Y]	-0.18
SFEPRNLLQLFED [S9Q]	1.21
SYEPRNLLSLFED [F2Y]	-0.204
SFEPNNLLSLFED [R5N]	0.0674
SFHPRNLLSLFED [E3H]	1.44
IFEPRNLLSLFED [S1I]	1.77
SFEPTNLLSLFED [R5T]	0.771
SFEPRDLLSLFED [N6D]	1.12
SFEPRNYLSLFED [L7Y]	-0.127
SFQPRNLLSLFED [E3Q]	2.06
SFEPRNLLELFED [S9E]	1.3
SFEPRNLLSLFAD [E12A]	0.228
SFEPRNLLSLEED [F11E]	-0.0722
SFEPRNELSLFED [L7E]	-1.37
SFEPRNLLSLFEL [D13L]	1.19

Block 2
Target: Centromere-binding protein 1, full length, His-tagged (CBF1, Saccharomyces cerevisiae, UniProt P17106, residues 1-351)
Sequence of UniProt P17106 (whole entry, looked up): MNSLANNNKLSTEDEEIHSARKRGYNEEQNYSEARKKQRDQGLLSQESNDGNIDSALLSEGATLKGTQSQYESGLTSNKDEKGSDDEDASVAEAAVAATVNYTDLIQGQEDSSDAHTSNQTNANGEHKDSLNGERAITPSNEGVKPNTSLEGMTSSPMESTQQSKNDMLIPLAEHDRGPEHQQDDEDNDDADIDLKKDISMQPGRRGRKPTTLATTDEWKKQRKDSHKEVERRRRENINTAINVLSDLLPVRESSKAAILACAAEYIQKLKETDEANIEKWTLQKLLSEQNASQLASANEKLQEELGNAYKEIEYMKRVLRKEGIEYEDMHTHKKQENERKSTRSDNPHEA
Method: competition protein-binding microarray
Molecule type: double-stranded DNA, one strand shown
Medium: in vitro
Tested at: 2 µM
Notes: whole 60-bp probe, lowest competitor level
Added: Pho4 competitor, 0.05 µM
Reading: higher = stronger binding
Shared flanks, not repeated: … GTCTTGATTCGCTTGACGCTGCTG
Sequence	fluorescence intensity [a.u.]
CGTCCTAGTGATTGTCATGTGGGTGCCATGAGGAAG	199
GGTTCTGTTTCGATGCACGCTAGATTACTCGAACCA	82.1
CGATGATGACTACATCATGTGACAGGTTAATGGTCA	1690
CTTTCCCGATCTTGGCCGGTGGGTGTAGCACATTTG	75.8
TGCGGGCGCGCTTTTCACGTTTTGATTAGCAACAGG	104
TTCTGGACGTATCTGCACATGTGTGTTGCTTTTGTT	140
GACGGGCGCTGGGGACTCGTGCCGATCCGGGACTGG	61.8
AATATAACTCAACAAAACGTGACGGAAAATCAAATG	924
GTCTTGTCTCATTGACAGGTGGGTGTCCCCACTTCA	66.6
CGAATGCTCTTGAGCATCGTGGCCGTCACCCGGTAT	71.8
AAATTACTAAGTTGCTTCGTGGGTGACGCCGTATGA	69.8
CATACCCAACCTTTTCACGTGGGTTAAGATATTTGT	962
TGATTTGCTTCTCACCACGGGTAGTTATCATTGGCT	58
ATTACTTGTTGCCATCACGATACTGGCATCCGATAG	109
TGTGGGGACGTCGTTCACGTGCAAAAGTCGCCAAAT	1420
CATACCCAACCTTGTCACGAGACTTAAGATATTTGT	1240
CCTGCCCAGACCCTCCACGTGGGCACAGCAGCCAGG	548
CGCCAATCCAGCATGAGCATGACGCCGGTTCGAGAA	67.6
TATGTACGCCTTTTCCGCGTGCGATGGTCTTTACCG	69.7

Block 3
Target: OGT, full length, His-tagged (human)
Method: phage display, sequencing
Medium: in vitro
Tested at: 1 µg OGT
Notes: single substitutions, 15-mer displayed peptide, unchanged parent 19.6
Reference: input library
Reading: higher = stronger binding
Starting sequence: peptide; TAPFYPPAYQIQVFK
Change	fold enrichment
P6R	1.59 fold
Y9A	1.07 fold
F4R	13.2 fold
A2F	19.2 fold
A8T	1.58 fold
K15W	6.63 fold
A2P	15.4 fold
A2M	23.3 fold
Q10M	2.5 fold
I11Y	0.813 fold
I11G	0.517 fold
Y9V	3.12 fold

Block 4
Target: ABI1, truncated, D143A, DHFR fusion (Arabidopsis thaliana)
Method: DHFR PCA, deep sequencing
Medium: yeast
Notes: methotrexate growth selection, single substitutions
Added: (+)-ABA 2500 µM
Reference: wild-type fitted maximum
Reading: higher = stronger binding
Starting sequence: PYL1, truncated, DHFR fusion (Arabidopsis thaliana); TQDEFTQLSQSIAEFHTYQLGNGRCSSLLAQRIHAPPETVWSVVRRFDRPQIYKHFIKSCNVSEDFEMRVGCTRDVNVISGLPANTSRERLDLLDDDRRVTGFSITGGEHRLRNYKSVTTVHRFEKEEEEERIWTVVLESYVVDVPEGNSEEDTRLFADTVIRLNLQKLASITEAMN
Change	relative binding score [%]
V161A	66.8
L112D	-8.1
G23W	91.8
R45P	-6.08
S171H	97.2
E129P	106
V142K	83.3
N114S	95.1
G108Y	59.8
R111V	56.5

Block 5
Target: Sal-like protein 4, full length isoform A (SALL4, Homo sapiens, UniProt Q9UJQ4, residues 1-1053)
Sequence of UniProt Q9UJQ4 (whole entry, looked up): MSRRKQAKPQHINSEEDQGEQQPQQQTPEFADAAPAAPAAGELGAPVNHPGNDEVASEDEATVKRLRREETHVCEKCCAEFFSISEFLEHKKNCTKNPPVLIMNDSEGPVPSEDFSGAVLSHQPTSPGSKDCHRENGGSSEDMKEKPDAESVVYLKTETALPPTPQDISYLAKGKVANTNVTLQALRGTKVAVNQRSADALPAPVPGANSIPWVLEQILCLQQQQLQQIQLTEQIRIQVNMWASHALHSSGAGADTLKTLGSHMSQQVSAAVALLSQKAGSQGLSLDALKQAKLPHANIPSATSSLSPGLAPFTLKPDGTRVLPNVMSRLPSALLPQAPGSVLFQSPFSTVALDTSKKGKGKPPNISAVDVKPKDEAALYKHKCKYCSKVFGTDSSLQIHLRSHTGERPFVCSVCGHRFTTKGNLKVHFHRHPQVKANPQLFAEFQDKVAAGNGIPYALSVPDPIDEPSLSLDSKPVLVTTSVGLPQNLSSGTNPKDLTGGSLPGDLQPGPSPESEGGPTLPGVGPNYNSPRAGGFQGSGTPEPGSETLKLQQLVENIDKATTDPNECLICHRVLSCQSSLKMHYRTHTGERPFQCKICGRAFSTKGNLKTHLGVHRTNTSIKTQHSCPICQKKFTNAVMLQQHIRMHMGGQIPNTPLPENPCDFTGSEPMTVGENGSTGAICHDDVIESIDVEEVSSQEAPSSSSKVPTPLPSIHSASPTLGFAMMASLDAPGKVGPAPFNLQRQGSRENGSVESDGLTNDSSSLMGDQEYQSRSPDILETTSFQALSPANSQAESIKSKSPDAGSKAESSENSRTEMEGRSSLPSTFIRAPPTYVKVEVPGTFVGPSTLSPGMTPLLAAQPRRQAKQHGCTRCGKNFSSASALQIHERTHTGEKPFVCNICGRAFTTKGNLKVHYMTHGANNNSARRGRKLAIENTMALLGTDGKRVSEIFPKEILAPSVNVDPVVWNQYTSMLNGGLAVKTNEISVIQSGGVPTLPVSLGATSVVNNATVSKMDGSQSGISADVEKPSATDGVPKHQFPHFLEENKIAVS
Method: universal PBM
Molecule type: double-stranded DNA, one strand shown
Medium: in vitro
Tested at: 600 nM
Notes: 8-mer, flanks averaged, mean of replicates
Reading: higher = stronger binding
Sequence	E-score
TAGCGTCA	0.0261
ACTGAAGC	0.0294
CCCTACGG	-0.184
ACGCCAGT	-0.254
AGTACGGA	-0.0494
GACAATCC	0.0209
AGCTATAT	0.233
TGCGTAAA	0.11
ACTTGCAG	0.00445
AAGTTTCG	-0.059
CGTTTAGA	-0.0255
AGCATAGA	0.0224
ACGCGGAG	-0.24
CTGCATCA	0.0614
CAAACCTG	-0.0245
AATACAGC	0.026
AGTGGCAA	0.162
CCTTGCTA	0.0663
CACACAGA	-0.0226
AGTGAATG	0.0866
AGTGCCCC	-0.262
CTCTGTAC	0.0328
ACCACACA	0.0433

Mixed results
Substance	target	test	system	conditions	how to read	measurement	result
PhoQ, residues 284 288 289 292 302 303 SMYGEC	PhoP, residues 12 14 15 18 19 NMSSL (Escherichia coli, UniProt P23836)	Sort-seq, refers to: YFP reporter	E. coli	PhoQ-PhoP variant library, added: 10 µM Mg2+	reference: high Mg2+ state, higher = stronger signaling	fold induction	1.33

Excerpt of the above (block 3):
Change	fold enrichment
P6R	1.59 fold
Y9A	1.07 fold
F4R	13.2 fold
A2F	19.2 fold
A8T	1.58 fold
K15W	6.63 fold
A2P	15.4 fold
